Published values from different studies.
A part holds a random share of what one study measured. Substitutions count along the parent as printed.

Sample 1
Target: CCNF, cyclin fold, Cln2 fusion (human)
Method: yeast growth competition, sequencing
Sample: yeast
Notes: strong parent motif
Baseline: not given
Direction: higher = stronger binding
Starting sequence: CDC6 docking peptide (human); TLKGRRLVFDNQL; partner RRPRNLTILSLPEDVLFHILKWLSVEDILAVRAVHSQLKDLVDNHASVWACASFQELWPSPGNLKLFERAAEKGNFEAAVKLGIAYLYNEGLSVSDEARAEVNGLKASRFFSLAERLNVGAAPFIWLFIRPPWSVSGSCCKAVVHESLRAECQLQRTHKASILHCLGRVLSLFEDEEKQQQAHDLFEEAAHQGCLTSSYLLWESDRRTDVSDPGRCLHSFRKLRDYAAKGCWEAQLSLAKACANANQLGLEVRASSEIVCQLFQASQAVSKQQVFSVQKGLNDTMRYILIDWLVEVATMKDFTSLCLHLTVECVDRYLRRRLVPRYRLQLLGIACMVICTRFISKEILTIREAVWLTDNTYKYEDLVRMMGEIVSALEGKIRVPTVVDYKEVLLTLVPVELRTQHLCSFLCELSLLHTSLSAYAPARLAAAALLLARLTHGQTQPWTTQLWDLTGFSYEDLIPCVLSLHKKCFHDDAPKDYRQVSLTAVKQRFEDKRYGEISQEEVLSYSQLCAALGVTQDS
Substitution	normalised enrichment score
Q12C	8.7
L7E	0.307
V8A	6.07
L2C	7.64
L7Y	1.36
L13P	10
L7T	0.453
L7N	0.897
R6H	5.99
Q12F	10.3
L13S	9.74
G4F	3.25

Sample 2
Target: Ras GTPase-activating protein-binding protein 1, full length (G3BP1, Homo sapiens, UniProt Q13283)
Chain of UniProt Q13283 (whole entry, looked up): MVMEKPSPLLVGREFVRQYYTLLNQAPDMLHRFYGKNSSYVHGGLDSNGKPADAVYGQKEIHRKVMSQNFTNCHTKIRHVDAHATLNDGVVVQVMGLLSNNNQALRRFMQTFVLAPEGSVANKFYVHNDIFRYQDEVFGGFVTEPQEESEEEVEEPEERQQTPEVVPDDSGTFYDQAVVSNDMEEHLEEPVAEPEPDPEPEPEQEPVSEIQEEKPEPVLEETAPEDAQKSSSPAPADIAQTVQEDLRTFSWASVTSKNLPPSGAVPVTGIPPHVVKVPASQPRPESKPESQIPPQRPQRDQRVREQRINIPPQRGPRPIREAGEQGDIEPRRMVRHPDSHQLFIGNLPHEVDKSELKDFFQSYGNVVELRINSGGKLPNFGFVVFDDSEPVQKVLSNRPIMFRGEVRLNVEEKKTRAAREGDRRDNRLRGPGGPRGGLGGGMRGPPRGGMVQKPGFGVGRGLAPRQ
Method: RNA Bind-n-Seq
Molecule type: RNA
Sample: in vitro
Concentration: 200 nM
Notes: whole 134-nt RNA, ends assumed
Added: 150 mM KCl
Baseline: input library
Direction: higher = stronger binding
All sequences stand within: GGGAGUUCUACAGUCCGACGAUC … UGGAAUUCUCGGGUGUCAAGG
Strand	log2 enrichment
UCAAGUCCUGUGCUACACAUCGUAUGUACCGAAUCGGGGCCGGGGCCGGGGCCGGAAAGUAUUAUGUUACGCCGUUCGGAUCUGCACUUC	-1.22
AAGUCCUGUGCUACACAUCGUAUGUACCGAAUCGGGAAAAAGGGAAAAAGGGAGGGAAAGUAUUAUGUUACGCCGUUCGGAUCUGCACUU	0.446
AAGUCCUGUGCUACACAUCGUAUGUACCGAAUCGGAGGAAAAAAAGGAAAAAAAGGAAAGUAUUAUGUUACGCCGUUCGGAUCUGCACUU	-1.12
UCCUGUGCUACACAUCGUAUGUACCGAAUCGGGAAAAAAGGAAAAAAGGGGAAAAAAGGAAAGUAUUAUGUUACGCCGUUCGGAUCUGCA	-0.738
UGUCCAGCUCUGAAGGGCAAAGUGCAGAAGAUCCUAAUCUGGAAGUGGGGUCAGCCACCAUCUCCCACACCAGUGCCUCGGCCUCCAGAU	0.0259
GCAGGAAGUAAAAACAAAUGGAAAUGCUUCGGAUAGUGGCCGGGGUGGGGGUUGCUAAGGAAAGGGUGGGAUGGGAGUGGGUAAAGAGUU	0.879
CACAGACAACACGCACCCACACAGACACAGAGGGAAGGGGUUGGGAUGGGGACAGGGUGCACAGCAGGGCGGGGAAAGACCCCAGCCCCU	1.93
AGUCCUGUGCUACACAUCGUAUGUACCGAAUCGGGAAAAAGGGUUUGGGAAAAAGGGAAAGUAUUAUGUUACGCCGUUCGGAUCUGCACU	-0.673

Sample 3
Target: Sal-like protein 4, full length isoform A (SALL4, Homo sapiens, UniProt Q9UJQ4, residues 1-1053)
Chain of UniProt Q9UJQ4 (whole entry, looked up): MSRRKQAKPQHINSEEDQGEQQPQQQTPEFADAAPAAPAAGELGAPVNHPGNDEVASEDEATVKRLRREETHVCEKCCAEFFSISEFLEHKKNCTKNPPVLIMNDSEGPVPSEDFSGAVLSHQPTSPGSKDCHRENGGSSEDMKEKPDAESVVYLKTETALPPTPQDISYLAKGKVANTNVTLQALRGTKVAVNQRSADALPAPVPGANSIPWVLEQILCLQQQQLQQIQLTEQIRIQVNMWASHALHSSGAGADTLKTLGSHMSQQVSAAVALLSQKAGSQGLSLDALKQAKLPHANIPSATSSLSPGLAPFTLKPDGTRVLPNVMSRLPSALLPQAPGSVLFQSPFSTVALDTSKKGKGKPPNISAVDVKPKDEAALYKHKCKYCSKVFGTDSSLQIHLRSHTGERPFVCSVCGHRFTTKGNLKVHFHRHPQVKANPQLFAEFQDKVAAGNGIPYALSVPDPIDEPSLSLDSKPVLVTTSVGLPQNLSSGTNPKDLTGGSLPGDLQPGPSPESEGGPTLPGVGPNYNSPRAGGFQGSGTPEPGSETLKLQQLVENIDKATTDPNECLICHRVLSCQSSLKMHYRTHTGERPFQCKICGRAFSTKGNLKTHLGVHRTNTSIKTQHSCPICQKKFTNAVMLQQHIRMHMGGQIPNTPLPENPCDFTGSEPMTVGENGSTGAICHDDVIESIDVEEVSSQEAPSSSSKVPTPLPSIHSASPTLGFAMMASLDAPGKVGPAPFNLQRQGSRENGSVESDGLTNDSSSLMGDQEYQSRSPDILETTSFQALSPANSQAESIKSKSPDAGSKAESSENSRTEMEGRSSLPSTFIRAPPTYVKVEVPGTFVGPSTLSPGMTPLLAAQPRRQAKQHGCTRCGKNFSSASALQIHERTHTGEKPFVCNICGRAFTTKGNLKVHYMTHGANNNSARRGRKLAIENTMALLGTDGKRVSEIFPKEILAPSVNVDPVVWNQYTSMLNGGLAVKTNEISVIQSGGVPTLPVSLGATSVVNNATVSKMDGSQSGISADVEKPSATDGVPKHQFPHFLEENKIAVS
Method: universal PBM
Molecule type: double-stranded DNA, one strand shown
Sample: in vitro
Concentration: 600 nM
Notes: 8-mer, flanks averaged, mean of replicates
Direction: higher = stronger binding
Strand	E-score
GCTTCCTA	0.102
CGACCCCC	-0.32
AAGCTAGA	0.1
CTCATTCA	0.11
GCGTGTCC	-0.326
CGACTTGC	-0.171
ATCAACAT	0.31
GCTAGTAC	-0.067
ACAAAAAC	0.162

Mixed results
Substance	target	assay	system	setting	scale	endpoint	result
PhoQ, residues 284 288 289 292 302 303 AQGLTV	PhoP, residues 12 14 15 18 19 AGCRL (Escherichia coli, UniProt P23836)	Sort-seq, item: YFP reporter	E. coli	PhoQ-PhoP variant library, added: 10 µM Mg2+	baseline: high Mg2+ state, higher = stronger signaling	fold induction	1.37
